Experimental data from different studies.
Each line is one published result; not all experiments were run side by side.
TDP1: Tyrosyl-DNA phosphodiesterase 1 (TDP1, Homo sapiens, UniProt Q9NUW8)
Chain of UniProt Q9NUW8 (whole entry, looked up): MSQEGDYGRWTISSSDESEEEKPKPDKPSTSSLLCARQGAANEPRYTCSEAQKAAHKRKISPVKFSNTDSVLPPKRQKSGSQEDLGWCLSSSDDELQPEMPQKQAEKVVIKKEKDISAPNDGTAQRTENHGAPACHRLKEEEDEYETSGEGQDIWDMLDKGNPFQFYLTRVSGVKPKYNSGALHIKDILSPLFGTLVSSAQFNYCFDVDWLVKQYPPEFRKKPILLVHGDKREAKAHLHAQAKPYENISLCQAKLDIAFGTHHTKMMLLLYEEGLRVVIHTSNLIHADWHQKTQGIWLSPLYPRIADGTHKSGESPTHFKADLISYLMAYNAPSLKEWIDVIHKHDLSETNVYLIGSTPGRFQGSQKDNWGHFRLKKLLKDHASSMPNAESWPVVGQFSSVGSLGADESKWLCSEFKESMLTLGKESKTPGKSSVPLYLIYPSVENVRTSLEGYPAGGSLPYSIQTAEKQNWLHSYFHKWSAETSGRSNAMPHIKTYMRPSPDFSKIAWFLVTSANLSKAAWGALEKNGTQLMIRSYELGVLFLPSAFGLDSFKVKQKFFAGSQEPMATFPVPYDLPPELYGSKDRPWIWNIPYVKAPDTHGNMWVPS
CASP6: Caspase-6 (CASP6, Homo sapiens, UniProt P55212)
Chain of UniProt P55212 (whole entry, looked up): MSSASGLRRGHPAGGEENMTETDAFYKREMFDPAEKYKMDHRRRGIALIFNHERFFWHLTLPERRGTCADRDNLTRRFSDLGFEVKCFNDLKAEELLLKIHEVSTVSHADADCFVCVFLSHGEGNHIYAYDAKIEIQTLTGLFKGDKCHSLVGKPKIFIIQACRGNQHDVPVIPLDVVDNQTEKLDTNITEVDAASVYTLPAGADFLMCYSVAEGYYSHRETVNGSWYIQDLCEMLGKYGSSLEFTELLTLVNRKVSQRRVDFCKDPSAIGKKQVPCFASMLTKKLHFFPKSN
Chain of UniProt Q9HB29 (whole entry, looked up): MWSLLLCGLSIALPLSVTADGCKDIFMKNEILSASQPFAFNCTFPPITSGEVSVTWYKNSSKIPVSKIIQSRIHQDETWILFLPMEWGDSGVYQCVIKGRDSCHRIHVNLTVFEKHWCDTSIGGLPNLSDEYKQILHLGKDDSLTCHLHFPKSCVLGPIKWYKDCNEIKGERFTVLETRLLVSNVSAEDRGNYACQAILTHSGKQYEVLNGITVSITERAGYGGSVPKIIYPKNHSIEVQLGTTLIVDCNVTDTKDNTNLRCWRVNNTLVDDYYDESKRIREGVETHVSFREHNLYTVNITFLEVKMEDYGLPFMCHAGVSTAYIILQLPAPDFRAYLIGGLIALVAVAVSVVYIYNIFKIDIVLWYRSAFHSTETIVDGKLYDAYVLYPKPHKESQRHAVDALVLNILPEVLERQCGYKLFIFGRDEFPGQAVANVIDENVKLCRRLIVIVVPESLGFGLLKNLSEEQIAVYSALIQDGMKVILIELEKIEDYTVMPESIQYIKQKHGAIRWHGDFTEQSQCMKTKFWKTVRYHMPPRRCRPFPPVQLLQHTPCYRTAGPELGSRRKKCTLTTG
Chain of UniProt P40261 (whole entry, looked up): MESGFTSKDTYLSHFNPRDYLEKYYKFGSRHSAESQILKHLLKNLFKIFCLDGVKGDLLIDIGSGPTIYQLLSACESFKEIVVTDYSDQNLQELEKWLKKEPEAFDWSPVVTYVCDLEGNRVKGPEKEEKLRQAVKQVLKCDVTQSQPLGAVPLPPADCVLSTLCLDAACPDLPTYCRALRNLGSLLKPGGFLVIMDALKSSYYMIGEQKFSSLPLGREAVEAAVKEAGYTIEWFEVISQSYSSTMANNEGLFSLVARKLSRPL
Chain of UniProt P41145 (whole entry, unmodified, looked up): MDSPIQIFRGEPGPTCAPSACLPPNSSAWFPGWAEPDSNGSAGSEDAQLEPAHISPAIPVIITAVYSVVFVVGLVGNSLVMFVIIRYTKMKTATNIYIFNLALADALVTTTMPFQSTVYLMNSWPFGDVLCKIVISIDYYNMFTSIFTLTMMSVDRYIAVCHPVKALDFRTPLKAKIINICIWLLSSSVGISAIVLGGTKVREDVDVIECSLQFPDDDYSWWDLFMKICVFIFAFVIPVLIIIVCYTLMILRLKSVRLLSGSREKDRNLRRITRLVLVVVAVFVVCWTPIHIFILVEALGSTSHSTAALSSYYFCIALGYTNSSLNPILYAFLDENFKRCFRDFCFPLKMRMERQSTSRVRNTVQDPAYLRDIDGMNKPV
Chain of UniProt P0A7A9 (whole entry, looked up): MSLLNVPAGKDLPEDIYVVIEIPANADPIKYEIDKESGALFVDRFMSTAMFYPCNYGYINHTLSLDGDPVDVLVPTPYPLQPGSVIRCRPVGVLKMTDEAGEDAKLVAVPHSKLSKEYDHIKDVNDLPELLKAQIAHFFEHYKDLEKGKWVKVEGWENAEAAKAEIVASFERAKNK
Chain of UniProt P52597 (whole entry, looked up): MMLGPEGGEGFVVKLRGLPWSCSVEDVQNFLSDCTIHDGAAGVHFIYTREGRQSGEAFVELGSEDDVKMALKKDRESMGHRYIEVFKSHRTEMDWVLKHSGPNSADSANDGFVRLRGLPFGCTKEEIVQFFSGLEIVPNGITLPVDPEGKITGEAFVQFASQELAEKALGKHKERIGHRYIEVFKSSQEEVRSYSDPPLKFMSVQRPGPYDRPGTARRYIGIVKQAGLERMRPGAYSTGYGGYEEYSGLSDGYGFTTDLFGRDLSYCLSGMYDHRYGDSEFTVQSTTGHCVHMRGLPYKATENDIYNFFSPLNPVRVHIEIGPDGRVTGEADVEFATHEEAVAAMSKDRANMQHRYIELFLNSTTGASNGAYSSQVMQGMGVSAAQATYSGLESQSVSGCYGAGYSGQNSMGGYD

| SMILES | tested on | assay | system | setting | scale | endpoint | value |
| --- | --- | --- | --- | --- | --- | --- | --- |
| C[N+]1(Cc2ccccc2)CCN(CCCN2c3ccccc3Sc3ccc(Cl)cc32)CC1 | Inorganic pyrophosphatase (ppa, Escherichia coli, UniProt P0A7A9) | inhibitor, counter-screen, coupling enzyme alone | – | – | – | IC50 | 94.2 µM |
| Cn1cc(C=NOCc2ccc(-c3nc4cc(-c5ccccc5)ccn4c3Nc3ccc(C(=O)O)cc3)cc2)c(-c2ccc3c(c2)OCCCO3)n1 (mixture of isomers) | TDP1 | enzyme activity, inhibitor | – | 100 µM, unpurified compound | – | inhibition | 81.2% |
| CC(C)[C@@H]1NC(=O)[C@H](Cc2ccccc2)NC(=O)CSC[C@@H](C(N)=O)NC(=O)[C@H](CCC(=O)O)NC(=O)[C@H](CO)NC(=O)[C@H](Cc2c[nH]c3cccc(Cl)c23)NC(=O)[C@H](C2CCCCC2)NC(=O)[C@H](C(C)C)NC(=O)[C@H](Cc2ccc(O)cc2)NC(=O)[C@H](CC(=O)O)NC(=O)[C@H](Cc2c[nH]c3ccccc23)NC(=O)[C@H](Cc2ccc(N)nc2)NC(=O)[C@H](Cc2c[nH]c3ccc(Cl)cc23)NC(=O)[C@H](CCC(=O)O)NC1=O | Interleukin-1 receptor-like 2 (IL1RL2, Homo sapiens, UniProt Q9HB29) | reporter gene (SEAP), inhibitor, HEK-Blue IL-36R reporter | HEK-Blue IL-36R cells | 0.14 µM, 6 h, with: IL-36γ 0.3 ng/mL | – | remaining activity | 56.2% |
| Cc1cncc(Oc2ccc(C=NOCc3ccc(-c4nc5cc(-c6ccccc6)ccn5c4Nc4ccc(C(=O)O)cc4)cc3)cc2)n1 | TDP1 | enzyme activity, inhibitor | – | 100 µM | – | inhibition | 99.5% |
| CCNc1sc(C(C)=O)c(N)c1C#N | Uncharacterized protein (Trypanosoma brucei brucei, UniProt Q386Q8) | enzyme activity, inhibitor, coupled colorimetric | – | with: E. coli pyrophosphatase coupling | – | IC50 | 90.7 µM |
| COC1CN([C@H]2CC[C@H]([C@@]3(C)Oc4c(Cl)cc(C(=O)NCc5c(SC)cc(C)[nH]c5=O)c(C)c4O3)CC2)C1 | – | RNA-seq, refers to: TGM3 | human, whole blood | dose not given, 24 h | baseline: pretreatment baseline | log2 fold change | 3.7 |
| CCCCCC(O)/C=C/C=O (stereo not shown) | Heterogeneous nuclear ribonucleoprotein F (Homo sapiens, UniProt P52597) | competitive isoTOP-ABPP, refers to: HNRPF cysteine peptide | Ramos soluble proteome | 100 µM, with: iodoacetamide probe | baseline: DMSO over compound-treated, higher = stronger cysteine blockade | isoTOP-ABPP competition ratio | 1.4 |
| O=C(O)c1ccc(Nc2c(-c3ccccc3)nc3ccc(CON=Cc4ccc(N5CCCCC5)o4)cn23)cc1 (mixture of isomers) | TDP1 | enzyme activity, inhibitor | – | 100 µM, unpurified compound | – | inhibition | 0.5% |
| CNc1cc(N)c(C(N)=O)c[n+]1C | Nicotinamide N-methyltransferase (NNMT, Homo sapiens, UniProt P40261) | cellular inhibition | – | from cell pIC50 | – | ligand efficiency | 0.63 |
| CC(=O)N[C@@H](Cc1ccc(O)cc1)C(=O)N[C@@H](CCCCN)C(=O)N[C@@H](C)C(=O)N[C@@H](CC(=O)O)C(=O)COC(=O)c1c(C)cccc1C | CASP6 | enzyme activity, inhibitor | – | – | – | kinact/KI | 200 M⁻¹ s⁻¹ |
| NC(=O)c1cccc(CN(Cc2ccc(Cl)c(Cl)c2)C(=O)NC(CN2CCCCC2)c2ccccc2)c1 (stereo not shown) | Kappa-type opioid receptor (OPRK1, Homo sapiens, UniProt P41145) | cell-based | – | unit not given | higher = arrestin bias | Δlog(RA) arrestin minus Gi | -0.82 |
| CC(=O)N[C@H](C(=O)N[C@@H](CCC(N)=O)C(=O)N[C@@H](CO)C(=O)N[C@@H](CC(=O)O)C(=O)COC(=O)c1c(C)cccc1C)C(C)(C)C | CASP6 | enzyme activity, inhibitor | – | – | – | kinact/KI | 25100 M⁻¹ s⁻¹ |
| CC[C@H](C)[C@@H]1NC(=O)[C@H](Cc2c[nH]c3ccccc23)NC(=O)[C@H](Cc2ccccc2)N(C)C(=O)[C@H](C(C)C)NC(=O)[C@H](CC(C)C)NC(=O)[C@H](Cc2ccccc2)NC(=O)CSC[C@@H](C(=O)N[C@@H](CC(N)=O)C(N)=O)NC(=O)[C@H](Cc2ccccc2)NC1=O | Bromodomain-containing protein 4, BD1 (BRD4, Homo sapiens, UniProt O60885) | thermal stability, DSF | – | 100 µM | – | ΔTm | 1.11 °C |

Some of these lines once more:
| SMILES | tested on | assay | system | setting | scale | endpoint | value |
| --- | --- | --- | --- | --- | --- | --- | --- |
| C[N+]1(Cc2ccccc2)CCN(CCCN2c3ccccc3Sc3ccc(Cl)cc32)CC1 | Inorganic pyrophosphatase (ppa, Escherichia coli, UniProt P0A7A9) | inhibitor, counter-screen, coupling enzyme alone | – | – | – | IC50 | 94.2 µM |
